# Experimental data pooled from the literature.
# Every numbered part comes from another study and shows a few of its results, in no order.

# Series 1 — method: RNA Bind-n-Seq; molecule type: RNA; medium: in vitro; concentration: 200 nM; notes: whole 134-nt RNA, ends assumed; with: 150 mM KCl; reference: input library; direction: higher = stronger binding
# Target: Ras GTPase-activating protein-binding protein 1, full length (G3BP1, Homo sapiens, UniProt Q13283)
# Chain of UniProt Q13283 (whole entry, looked up): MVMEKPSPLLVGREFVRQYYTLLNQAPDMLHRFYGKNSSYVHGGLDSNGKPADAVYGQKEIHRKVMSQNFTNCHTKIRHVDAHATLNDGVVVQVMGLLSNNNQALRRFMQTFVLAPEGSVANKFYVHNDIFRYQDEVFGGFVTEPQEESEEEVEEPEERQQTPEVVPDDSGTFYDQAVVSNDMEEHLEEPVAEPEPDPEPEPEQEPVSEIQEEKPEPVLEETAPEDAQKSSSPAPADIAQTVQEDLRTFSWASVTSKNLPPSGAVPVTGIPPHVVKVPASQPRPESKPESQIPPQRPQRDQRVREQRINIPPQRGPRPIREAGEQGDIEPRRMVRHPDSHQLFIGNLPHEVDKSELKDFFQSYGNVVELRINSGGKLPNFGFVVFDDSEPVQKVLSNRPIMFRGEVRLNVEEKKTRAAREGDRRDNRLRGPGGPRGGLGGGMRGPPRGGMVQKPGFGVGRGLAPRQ
# All sequences stand within: GGGAGUUCUACAGUCCGACGAUC … UGGAAUUCUCGGGUGUCAAGG
Strand,log2 enrichment
AGUCCUGUGCUACACAUCGUAUGUACCGAAUCGGGUUUUUGGGAGGGUUUUUUUGGGAAAGUAUUAUGUUACGCCGUUCGGAUCUGCACU,-0.196
UAACUUUAGAGGAGGAUCUGUUGGAUAUGGCAGUGGACGUGGAUUUGGGGAUGGCUAUAAUGGGUAUGGAGGAGGACCUGGAGGUGGCAA,0.532
AAGUCCUGUGCUACACAUCGUAUGUACCGAAUCGGGGUGGGGUGGGGAAAAAGGGGAAAGUAUUAUGUUACGCCGUUCGGAUCUGCACUU,0.645
CAAGUCCUGUGCUACACAUCGUAUGUACCGAAUCGGGGCCGGGGCCGGGGCCGGGGAAAGUAUUAUGUUACGCCGUUCGGAUCUGCACUU,-0.8
CUGUGCUACACAUCGUAUGUACCGAAUCGGGGUUUUUUUGGGUUUUUUUGGGUUUUUUUGGAAAGUAUUAUGUUACGCCGUUCGGAUCUG,-0.741
GCAGGAAGUAAAAACAAAUGGAAAUGCUUCGGAUAGUGGCAGGGGUGGGGGUUGCUAAGGAAAGGGAGGGAUGGGAGUGGGUAAAGAGUU,0.972

# Series 2 — method: RNA Bind-n-Seq; molecule type: RNA; medium: in vitro; concentration: 365 nM; reference: no-protein control; direction: higher = stronger binding
# Target: RNA binding protein fox-1 homolog 2, RRM domain, GST-SBP tag (RBFOX2, Homo sapiens, UniProt O43251-10, residues 100-194)
# Notes: natural RNA segment, single round, ends assumed
# All sequences stand within: GGGAGUUCUACAGUCCGACGAUC … UGGAAUUCUCGGGUGCCAA
Strand,RBNS enrichment (R)
CCACUGCCCCUUUCUGGUUUAAAAAAAUGGUGCUUGAUGAGGGAAGGUAGACUCUUCCCUAGGACUGACGAGUUACGGCUGCCAGAUGCCUGCAUGGGAAGAGGUGGACA,0.479
GGUUUCAGAAUAAACUCAGAGAAAACUUCAGGCUAAGAGACAGUGCUGCGUAGCUGUGUUGUUUCCUGUUAUGAGCAUUGGAAAUUGGGUUCUCCUUCUGUGAGCAUGGA,2.37
UCUUGUCUAAUAUUCGUCUAUAAGGGAUUAAUUUUCAGACCCUUUAAUAAGUGAGUGCCAUAAGAAAGUCAAUAUAUAUUGUUUAAAAGAUAUUUCAGUCUAGGAAAGAU,0.676
CGGGAUCAUUUCCAUAAGUCUGCUUUUCAGGGAUUCUCUGCUGGUGCUGGUGCAAGGACUUCUGUUCCAAAGGCUGGGAAAAACUAAGCUGUCCCAGCCCCUCCCAUUUC,0.404
CCCAAAUGCCUAACAGUGCAGUCAUUUCUCAAUAAAUACAUUUUAAAUAAAUGAACAAAUUCUGCCGAAACUCAGUUCUGAGUCUGUUUAACCGAAUUCAUUCAAAACGU,0.66
UCCUGCAGGAGCCUGUGGCAUAUUUCCAGCUGGGCAUGCUGAUCCUCCUUGAGACACAGAUGCCUGUGUGAGUCUCCGUUGAUACAAUUCUGAACCCCUCAGGUUCUCUG,1.2
GGUUGAUGCUCUAGAGCCACUCUUUCUUAAUGCCAGAUUAUUUAAAGAAAAAUACAAGACAAAAACCUUCUAGCACUUUGUAAACACAGUGAAUAACCUCUUGGAGUAUU,0.369

# Series 3 — method: protein binding microarray; molecule type: double-stranded DNA, one strand shown; medium: in vitro; concentration: not given; reference: not given; direction: higher = stronger binding
# Target: Histone acetyltransferase KAT6A, both winged helices, GST fusion (KAT6A, Homo sapiens, UniProt Q92794, residues 1-181)
# Notes: 8-mer, flanks averaged, mean of 2 arrays, mostly near background
# Construct (chain): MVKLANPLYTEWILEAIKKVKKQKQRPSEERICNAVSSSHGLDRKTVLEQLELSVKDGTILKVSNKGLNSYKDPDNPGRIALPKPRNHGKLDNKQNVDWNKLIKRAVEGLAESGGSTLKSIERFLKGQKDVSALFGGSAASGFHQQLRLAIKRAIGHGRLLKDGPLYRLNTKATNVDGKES
Strand,E-score
GCCGACCA,0.122
ACTCCGAA,0.0488
CTGTATGA,0.135
TACGTCCA,-0.103
GGTGCCCA,-0.0916
CCGACTAG,0.0395

# Other studies, line by line
Substance,target,test,system,setting,scale,measurement,result
"PhoQ, residues 284 288 289 292 302 303 GANMMA","PhoP, residues 12 14 15 18 19 TPWLV (Escherichia coli, UniProt P23836)","Sort-seq, refers to: YFP reporter",E. coli,"PhoQ-PhoP variant library, with: 10 µM Mg2+","reference: high Mg2+ state, higher = stronger signaling",fold induction,0.617

# Repeated from above (series 2):
Strand,RBNS enrichment (R)
UCUUGUCUAAUAUUCGUCUAUAAGGGAUUAAUUUUCAGACCCUUUAAUAAGUGAGUGCCAUAAGAAAGUCAAUAUAUAUUGUUUAAAAGAUAUUUCAGUCUAGGAAAGAU,0.676
CGGGAUCAUUUCCAUAAGUCUGCUUUUCAGGGAUUCUCUGCUGGUGCUGGUGCAAGGACUUCUGUUCCAAAGGCUGGGAAAAACUAAGCUGUCCCAGCCCCUCCCAUUUC,0.404
